# Results from different studies.
# Every numbered part comes from another study and shows a few of its results, in no order.

# Block 1 — technique: universal PBM; form: double-stranded DNA, one strand shown; medium: in vitro; concentration: 600 nM; direction: higher = stronger binding
# Target: Sal-like protein 4, full length isoform A (SALL4, Homo sapiens, UniProt Q9UJQ4, residues 1-1053)
# Chain of UniProt Q9UJQ4 (whole entry, looked up): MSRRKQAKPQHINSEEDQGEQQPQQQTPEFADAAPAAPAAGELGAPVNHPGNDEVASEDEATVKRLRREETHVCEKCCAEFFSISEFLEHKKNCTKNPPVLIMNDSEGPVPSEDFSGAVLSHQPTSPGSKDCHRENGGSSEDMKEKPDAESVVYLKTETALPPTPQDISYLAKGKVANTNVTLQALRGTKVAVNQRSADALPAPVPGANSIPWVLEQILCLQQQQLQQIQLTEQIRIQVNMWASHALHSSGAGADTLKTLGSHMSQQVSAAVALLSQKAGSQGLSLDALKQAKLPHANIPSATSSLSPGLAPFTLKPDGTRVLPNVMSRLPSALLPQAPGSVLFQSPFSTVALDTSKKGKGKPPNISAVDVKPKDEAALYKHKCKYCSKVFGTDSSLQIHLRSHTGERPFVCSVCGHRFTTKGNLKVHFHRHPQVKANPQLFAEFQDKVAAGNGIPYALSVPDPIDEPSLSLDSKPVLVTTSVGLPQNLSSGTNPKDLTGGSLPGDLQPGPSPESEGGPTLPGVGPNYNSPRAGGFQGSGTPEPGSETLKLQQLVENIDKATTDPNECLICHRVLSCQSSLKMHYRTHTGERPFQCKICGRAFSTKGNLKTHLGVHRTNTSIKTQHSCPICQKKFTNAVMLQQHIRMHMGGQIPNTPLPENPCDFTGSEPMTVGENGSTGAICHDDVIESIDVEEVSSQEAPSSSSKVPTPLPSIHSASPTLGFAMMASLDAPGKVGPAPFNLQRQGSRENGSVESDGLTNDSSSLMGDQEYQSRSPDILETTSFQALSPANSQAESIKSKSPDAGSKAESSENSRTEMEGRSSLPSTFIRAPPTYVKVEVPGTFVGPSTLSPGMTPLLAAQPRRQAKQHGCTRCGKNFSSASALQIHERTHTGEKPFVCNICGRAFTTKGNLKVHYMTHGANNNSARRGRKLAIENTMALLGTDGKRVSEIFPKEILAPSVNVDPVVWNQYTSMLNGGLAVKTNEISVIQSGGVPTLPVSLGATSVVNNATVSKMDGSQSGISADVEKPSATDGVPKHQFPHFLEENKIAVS
# Setting: 8-mer, flanks averaged, mean of replicates
Strand,E-score
GTAATGCA,0.104
AGATCTTC,-0.0337
GTGGCTCA,-0.198
CGTGTGAG,-0.171
CTGTAAAA,0.195
CTGACTTA,0.192
GCCGATAA,-0.0597
ACATGTTC,0.119
CCGAAATC,0.0483
TACACTAA,0.205
AAAGGCTA,0.0763
GGTTATAA,0.295
GGGCAGAC,-0.295
ATGTCAAT,0.248
CTACTTGC,-0.0495
AACCCCAG,-0.288
GACCGTCA,-0.1
CAGAGGGA,-0.287
AGCGACCG,-0.323
CCAAGTTC,-0.147
ACAAGACA,0.151
ATCAGTGA,0.0156
CACCGCGG,-0.335
CCATTGGG,-0.176
ACATGCAA,0.11

# Block 2 — technique: protein binding microarray; form: double-stranded DNA, one strand shown; medium: in vitro; concentration: not given; reference: not given; direction: higher = stronger binding
# Target: Histone acetyltransferase KAT6A, both winged helices, GST fusion (KAT6A, Homo sapiens, UniProt Q92794, residues 1-181)
# Setting: 8-mer, flanks averaged, mean of 2 arrays, mostly near background
# Construct (chain): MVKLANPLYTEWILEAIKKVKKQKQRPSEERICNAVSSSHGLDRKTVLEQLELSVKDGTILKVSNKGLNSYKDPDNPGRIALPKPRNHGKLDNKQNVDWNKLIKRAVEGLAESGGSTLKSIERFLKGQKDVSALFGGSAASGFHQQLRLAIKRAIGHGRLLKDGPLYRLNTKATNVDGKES
Strand,E-score
CTACTGAC,-0.0202
ACTTAAAA,0.0049
GGATAAAA,-0.00216
GGTACACA,0.12
ACCCAGGA,-0.0948
GCGCGTGA,0.323
ACGGTCCC,0.191
AATCGCAC,-0.0145
CACGGCTG,0.207
CGGCGCAA,0.291
CGCGGGTA,0.295
AATTCCGG,0.201
ACGCCAGG,0.0298
AAATCCAA,-0.0549
AATTTCCT,-0.209
ACGTGAGT,-0.16
ACAATGAT,-0.122
AGCACATG,-0.0404
GATTCGAC,-0.169
AACCGGAG,0.143
ACCCTGCC,-0.0858
AAACTTCT,-0.0112
AACTAATT,-0.086
AAATCAAC,-0.138
CTACATGC,-0.00789

# Block 3 — technique: RNA Bind-n-Seq; form: RNA; medium: in vitro; concentration: not given; reference: input RNA pool; direction: higher = stronger binding
# Target: RING finger protein unkempt homolog, zinc fingers 1-6, GST-SBP tag (UNK, Homo sapiens, UniProt Q9C0B0, residues 30-357)
# Chain of UniProt Q9C0B0 (30-357, looked up): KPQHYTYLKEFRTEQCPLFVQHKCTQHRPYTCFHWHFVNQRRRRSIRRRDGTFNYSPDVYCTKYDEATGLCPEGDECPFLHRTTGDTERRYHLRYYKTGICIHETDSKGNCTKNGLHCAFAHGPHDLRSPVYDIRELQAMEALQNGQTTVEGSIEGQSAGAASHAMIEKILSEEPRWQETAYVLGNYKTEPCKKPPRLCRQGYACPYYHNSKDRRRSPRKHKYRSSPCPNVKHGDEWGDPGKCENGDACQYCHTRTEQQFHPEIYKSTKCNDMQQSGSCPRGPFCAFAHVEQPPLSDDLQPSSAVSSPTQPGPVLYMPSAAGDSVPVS
# Setting: RNA with constant flanks, human-mouse chimeric sites, ends assumed
# Constant ends, left off below: GGGAGUUCUACAGUCCGACGAUC … CAACAGAGGAUUGAGCAUCA
Strand,bound/input enrichment
AACUUCGUGCAUCGGUUUCCCUUUGUAGCUGUUUCAAUUGGCUUCCUUGUAAAUAAAGAGAUGGAGUUUGGAAUUGUGUACAGCUGUGUGGAAGGCAAGAUGUACACCGGCAGGAAAGGG,0.325 ratio
UCCCAAAUCCAGCAGCUAGAAGGAGCCUUGAGACAAACACUCCACACACAGGGAAGGCGAUAACAUUGUAAAUUGGUUUACAUUUUUUCCCCCUGUGUUUUCUAGGGGAGGUCAUAGUGC,0.382 ratio
UUUCUACUGCAGCAAACGAUGCUAAGAAUUAAGGAUCCUAAGAAGUCCCUGGAUUUUUAUACGAGGGUUCUUGGAAUGACCCUCCUGCAGAAGCUUGACUUCCCUGCUAUGAAGUUCUCG,0.167 ratio
AAAGAGAAACUAAAGCAACUAAUAGAGGAAGAGGAUUGCAAAGAGAAAUUUCAUAGAAAACUAGGAUUUAUUAGCAAACAUGAGUUAUAUUCCAGAGCGUCUCAGAAACCCCAGCCAAAC,9 ratio
ACCAUUUUCGCGGUUCAGGCUUUGUGUGUAGUUCACUUACGGUAUUAAAUUAUUAUUCUGCUUAGCUUAUAAUAAGGAUAAUUGCAUUUAAAGAGGUGAUCACUGAAUACUCUGAAACUU,0.909 ratio
GGCCUGGGACCGUCCUGGGCUAGUACAAAUAGCGGCAGUGGAGGCUCAGAGGAAAGUUUGUUAGUGGGAGGCAGUGGUAGAGGCCGUCAUGUACGGUCCUUUACUCGAUAGAUGUGUUCU,0.581 ratio
UGUGCCCUGAUGGCAGCUACCUGAGUGGCAGCUGAAGUUGACUCCCUCUCCUUGCCUGAACCCCCCCCCACUGCCCCCCCAUCCCCCAGUGUCGGCUGAGAUGUUGCCUCUGCACGGUUC,1.32 ratio
AAGCAACGCAAACUUGAAACAAUUCGUUAUCUUGCAGAGCUUCGGUGCACUUGCUUGGCGAUAGCAUUGGGGUUUUAUAGGUUCUGGAAGGAGAACUGACGAUGAUGCUGCCGCUGCUGC,0.443 ratio
AAAGAGAAACUAAAGCAACUAAUAGAGAAGAGGAUUGGCAAAGAGAAUUUCAUAGAGAAACUAGGAUUUAUUAGCAAAACAUGAGUUUAUUCCAGAGCGUCUCAGAAAACCCCAGCCAAC,12.2 ratio
ACCAUUUUCGCGGUUCAGGCUUUGUGUGUAGUUCACUCUAUGUAUUAAAUUAUUAUUCUGCUUAGCUUAAAGUAAGGAUAAUUGCAUUUAAAGAGGUUACUGAAUGUUACUCUGAAACUU,0.224 ratio
UCUGGUCACACUCGUGUGUAUGGUGUUUGCUUUGUGGAUACUUCACUGGGCAAGUUUUUCAUCGGCCAGUUUUCAGAUGACCGCCACUGUUCCAGAUUUAGGACGCUAGUGGCUCACUAU,0.204 ratio

# Block 4 — technique: protein-binding microarray; form: double-stranded DNA, one strand shown; medium: in vitro; concentration: 940 nM top; setting: 60-bp whole probe; added: salmon DNA 0.4 mg/ml; reference: random background probes; direction: higher = stronger binding; constant ends, left off below: GCCTAGCAC … GTCTTGATTCGCTTGACGCTGCTG
# Target: Interferon regulatory factor 5, full length, phosphomimetic (IRF5, Homo sapiens, UniProt Q13568-2, residues 1-514, S451D/S453D/S456D/S462D)
Strand,fitted relative affinity [z-score]
CAGAATTTACTTTCTACGTCGTGCTAG,0.74
CACTTTTCCTACATCAGCTGGTGCTAG,1.38
TCCATTTTCAGAATTTACTTGTGCTAG,0.829
TTAGATATCGGGACTGGAGTAGTGCTA,-0.139
TCAAATTTGGAAACCGAACTGTGCTAG,-0.517
GAGGGTTTCGGGTTTCGGGACGTGCTA,7.47
TTAGATTTCAGACTGGATAAGTGCTAG,0.0841
TTAGGACTGGGTATCGGATAGTGCTAG,0.87
TTAGGTTTCGGGACTGGGCTAGTGCTA,6.86
TCACCTCTCCATACTTCACTGTGCTAG,1.26
AGCAGGGCTGATGCTCCCCTGTGCTAG,-1.21
TCATTATTCTAGCCTCCAACTGTGCTA,1.11
TCAGGACTGGACTATCGGTTAGTGCTA,-0.128
TCATCTCTGGGCTGTGGGACTGTGCTA,0.334
GACGAACTGGGGTATGGAGACGTGCTA,0.506
TTAGATATCAGTATCGATTCGTGCTAG,4.41
GACGATTTCAGATTGGAGACGTGCTAG,-0.228
TTAGGTCTCGGTCTGGGTTAGTGCTAG,4.4
TCAGATATGCGGTAAGGGACTGTGCTA,-0.334
TCACTTCCCCTCTCTTTCACTGTGCTA,1.83
TTAGAACTGGGGTTTCGTTTAGTGCTA,3.44
CACGGTATCCTTATCCTGACGTGCTAG,0.0611
TGAGATATCAGTTTCGATTAGTGCTAG,7.78
TCATTTTTCTGATCCATACTGTGCTAG,1.08
GACCATTTCAGTCTCGAGACGTGCTAG,1.93

# For quick reference, copied from above (block 2):
Strand,E-score
AATTCCGG,0.201
ACGCCAGG,0.0298
AAATCCAA,-0.0549
AATTTCCT,-0.209
ACGTGAGT,-0.16
ACAATGAT,-0.122
AGCACATG,-0.0404
GATTCGAC,-0.169
AACCGGAG,0.143
ACCCTGCC,-0.0858
AAACTTCT,-0.0112
AACTAATT,-0.086
